Measurements of several laboratories.
Each line is one published result; not all experiments were run side by side. “And” joins repeats or separate records; there may be more than shown. ± gives the spread as reported.
WDR55: WD repeat-containing protein 55 (WDR55, Homo sapiens, UniProt Q9H6Y2)
HTR7: 5-hydroxytryptamine receptor 7 (HTR7, Homo sapiens, UniProt P34969)
SLC6A6 Y138A: Sodium- and chloride-dependent taurine transporter (SLC6A6, Homo sapiens, UniProt P31641, Y138A)
Uncharacterized protein: Uncharacterized protein (Pelagibacter ubique, UniProt Q4FKX4)
GUK1: GUK1 (Homo sapiens, UniProt Q16774)

SMILES | target | test | test system | setting | how to read | measurement | value
CC[C@@H](C)[C@@H](NC(=O)[C@@H](Cc1ccc(O)cc1)NC(=O)[C@H]1CCCN1C(=O)[C@@H](CCCNC(=N)N)NC(=O)[C@H](N)Cc1c[nH]cn1)C(=O)N[C@H](C)C(=O)N[C@H](Cc1c[nH]cn1)C(=O)N[C@H](CCCNC(=N)N)C(=O)N[C@@H](C(=O)N[C@H](Cc1ccc(O)cc1)C(=O)N[C@H](CO)C(=O)N[C@H](Cc1ccccc1)C(N)=O)C(C)C | Transferrin receptor protein 1 (Tfrc, Mus musculus, UniProt Q62351) | flow cytometry | B16 | 48 h, unit not given | reference: 0 h | surface expression | 0.532 and 0.526
Cc1cccc(N2CC(C(=O)O)CC2=O)c1 (stereo not shown) | WDR55 | binding, affinity selection mass spectrometry | – | – | reference: other proteins in batch | fold enrichment | 0.998
Nc1ncnc2c1ncn2[C@@H]1O[C@H](COP(=O)(O)CP(=O)(O)OP(=O)(O)O)[C@@H](O)[C@H]1O | P2X purinoceptor 1 (P2RX1, Homo sapiens, UniProt P51575, R292A) | calcium influx | – | 316 nM | reference: ionomycin response | calcium influx | 0.597% and 0.0554% and 0%
C=CC(=O)N1CCC(COCC(=O)N2CCN(c3nc(-c4cnc(N)nc4C(F)F)nc(N4CCOC[C@@H]4C)n3)CC2)CC1 | Mitogen-activated protein kinase kinase kinase 13 (MAP3K13, Homo sapiens, UniProt O43283) | KINOMEscan | – | 1 µM | reference: DMSO control | remaining binding | 78%
O=C1c2ccccc2CCN1CCCCN1CCN(c2cccc(Cl)c2Cl)CC1 | HTR7 | radioligand binding | – | concentration not given, added: [3H]LSD | – | inhibition | 100%
CC(C)C[C@H](NC(=O)[C@H](CCCCN)NC(=O)OCc1ccccc1)C(=O)N[C@H](B(O)O)C(C)C | Serine protease HTRA1 (Homo sapiens, UniProt Q92743) | enzyme activity, inhibitor | – | concentration not given | reference: 1 | fold inhibition | 6 fold
NCC(=O)O | Sodium- and chloride-dependent neutral and basic amino acid transporter B(0+) (Slc6a14, Mus musculus, UniProt Q9JMA9) | transport current, two-electrode voltage clamp | Xenopus oocytes | 1 to 2 mM, holding potential -40 mV | – | current amplitude | 1450 ± 98.8 nA
Nc1ccn([C@H]2C[C@H](O)[C@@H](COP(=O)(O)OP(=O)(O)OP(=O)(O)O)O2)c(=O)n1 | Gag-Pol polyprotein, reverse transcriptase (gag-pol, Human immunodeficiency virus type 1 group M subtype B, UniProt P04585) | nucleotide incorporation, substrate | HIV-1 | added: RNA template | – | Vmax | 0.29 product fraction
C[C@]12C[C@H](O)[C@H]3[C@@H](CCC4=CC(=O)CC[C@@]43C)[C@@H]1CC[C@@H]2C(=O)CO | Cytochrome P450 11B2, mitochondrial (CYP11B2, Homo sapiens, UniProt P19099, A320V) | substrate | – | 100 µM, 37 °C, phospholipid vesicles | – | 18-hydroxylation product formation rate | 0.8 ± 0.2 min⁻¹
NS(=O)(=O)c1cc2c(cc1Cl)NC(C1CC3C=CC1C3)NS2(=O)=O (stereo not shown) | Glutamate receptor 2 (Gria2, Rattus norvegicus, UniProt P19491, del528-650/N775S/S652T/V651G) | SAXS | – | 0.15 mM, added: LBD 0.1 mM | – | dimer fraction | 50.4%
NCCCS(=O)(=O)O | SLC6A6 Y138A | binding, microscale thermophoresis | – | 46.3 nM, fitted curve | higher = more binding | fraction bound | 0.000419
O=C(COP(=O)(O)O)[C@@H](O)[C@H](O)[C@H](O)COP(=O)(O)O | Phosphoglycerate mutase 1 (Homo sapiens, UniProt P18669) | activator | – | 0.1562 mM, wild-type enzyme, unit not given | relative to no compound | enzyme activity | 1.91 and 1.71 and 1.67
CC1CCCN(C(=O)c2cc3ncccn3n2)C1 (stereo not shown) | WDR55 | binding, affinity selection mass spectrometry | – | – | reference: other proteins in batch | log fold enrichment | -0.161
CO[C@H]1O[C@H](COS(=O)(=O)O)[C@@H](O[C@@H]2O[C@@H](C(=O)O)[C@@H](O[C@H]3O[C@H](COS(=O)(=O)O)[C@@H](O[C@@H]4O[C@H](C(=O)O)[C@@H](O[C@H]5O[C@H](COS(=O)(=O)O)[C@@H](O)[C@H](O)[C@H]5NS(=O)(=O)O)[C@H](O)[C@H]4O)[C@H](OS(=O)(=O)O)[C@H]3NS(=O)(=O)O)[C@H](O)[C@H]2OS(=O)(=O)O)[C@H](O)[C@H]1NS(=O)(=O)O | Beta-2-glycoprotein 1, domain V (APOH, Homo sapiens, UniProt P02749, V266L) | isothermal titration calorimetry | – | added: 100 mM NaCl | reference: total free energy | salt-independent binding energy share | 58%
Nc1ccc(C(=O)O)cc1 | BEST1, with wild-type BEST1 (Homo sapiens, UniProt O76090, R218H) | ion current, whole-cell patch clamp | HEK293 co-expressing mutant and wild-type | concentration not given, voltage -20 mV | – | current density | -4.64 pA/pF and -1.85 pA/pF and -5.09 pA/pF and -3.11 pA/pF and -6.88 pA/pF and -3.1 pA/pF and -0.86 pA/pF and -0.9 pA/pF
Cc1cc(Cl)cc(C)c1OCC(=O)NC(C)C | Sodium-dependent neutral amino acid transporter B(0)AT1 (SLC6A19, Homo sapiens, UniProt Q695T7) | membrane potential, FLIPR membrane potential | CHO-BC cells | concentration not given, first screen | reference: uninhibited control | normalised transport activity | 0.897 and 0.932 and 0.925 and 0.889 and 0.951
Cc1ncsc1-c1ccc([C@H](C)NC(=O)[C@@H]2C[C@@H](O)CN2C(=O)[C@@H](NC(=O)CCCCCCCCC(=O)N(CCO)CCCOc2ccc3c(Nc4cc(CC(=O)Nc5cccc(F)c5)[nH]n4)ncnc3c2)C(C)(C)C)cc1 | Aurora kinase B (AURKB, Homo sapiens, UniProt Q96GD4) | protein degradation, degrader, Western blot | HPAF-II | 24 h | – | Dmax | 89 ± 0.4%
CCCCC[S+]([O-])c1n[nH]c(N)n1 (stereo not shown) | Histone acetyltransferase type B catalytic subunit (Homo sapiens, UniProt O14929) | binding, affinity selection mass spectrometry | – | – | reference: other proteins in batch | log fold enrichment | -0.0585
N#Cc1ccc2c(-c3ccncc3)c(-c3ccc(F)cc3)nn2c1 | Protein kinase C-like 1 (Candida albicans, UniProt P43057) | kinase binding, competitor, MIB/MS competition, refers to: PKC1 | Candida albicans cell lysate | 10 µM | reference: DMSO | log2 fold change | 0.485

SMILES | target | test | test system | setting | how to read | measurement | value
C[C@@H](c1ccc(-n2cnc3c(N)ncnc32)cc1)N1CCc2nn(C)c(Cc3ccccc3)c2C1=O | 1-phosphatidylinositol 3-phosphate 5-kinase (PIKFYVE, Homo sapiens, UniProt Q9Y2I7) | KINOMEscan | – | 0.1 µM | reference: DMSO control | remaining binding | 67%
O=C1CC[C@@H](C(=O)O)O1 | Uncharacterized protein | differential scanning fluorimetry | Candidatus Pelagibacter ubique | in-house screen | – | thermal shift | 5.53 °C
O=C(O)C1CCCNC1 (stereo not shown) | SLC6A6 Y138A | binding, microscale thermophoresis | – | 35.1 nM, fitted curve | higher = more binding | fraction bound | 0.00174
CC1=CC(=O)c2ccccc2C1=O | FSP1, ancestral | substrate | – | co-substrate fixed | – | Km | 6.33 ± 0.74 µM
Cc1nc(CSc2nc(SCc3ccc(C(C)C)cc3)nc(=O)[nH]2)cs1 | DNA topoisomerase 2-alpha (TOP2A, Homo sapiens, UniProt P11388) | DNA relaxation | – | 62.5 µM, replicate 2 | – | relaxed DNA | 99.8%
Clc1cccc(OC[C@@H]2CN(CCN3CCc4ccccc43)CCO2)c1 | 5-hydroxytryptamine receptor 2A (HTR2A, Homo sapiens, UniProt P28223) | radioligand binding | – | concentration not given, added: [3H]ketanserin | – | inhibition | 78%
CC[C@H](C)[C@H](NC(=O)[C@H](CC(=O)O)NC(=O)[C@H](CCC(=O)O)NC(=O)[C@@H](N)CC(N)=O)C(=O)N[C@@H](CC(=O)O)C(=O)N[C@@H](CCC(N)=O)C(=O)N[C@@H](CCSC)C(=O)N[C@@H](Cc1ccccc1)C(=O)N[C@@H](CO)C(=O)N[C@H](C(=O)N[C@@H](CC(C)C)C(=O)N[C@@H](CC(C)C)C(=O)NCC(=O)N[C@@H](CCC(=O)O)C(=O)N[C@@H](CCSC)C(=O)N[C@@H](CC(=O)O)C(=O)N[C@@H](CC(C)C)C(=O)N[C@@H](CC(C)C)C(=O)N[C@H](C(=O)N[C@@H](CCC(N)=O)C(=O)N[C@@H](CO)C(=O)O)[C@@H](C)O)[C@@H](C)O | Talin-1, with integrin beta3 (Tln1, Mus musculus, UniProt P26039) | inhibitor, fluorescence polarization | – | – | – | β3-talin head domain interaction | no inhibition
COCCC(=O)N1CCC(Oc2ccccc2)C1 (stereo not shown) | E3 ubiquitin-protein ligase CHIP (STUB1, Homo sapiens, UniProt Q9UNE7) | binding, affinity selection mass spectrometry | – | – | reference: other proteins in batch | fold enrichment | 0.769
O=C(O)c1ccc(Nc2ncc3c(n2)-c2ccc(Cl)cc2C(c2c(F)cccc2F)=NC3)cc1 | human Flt3(D835Y) | kinase activity | – | 1 µM | – | remaining activity | 81%
CCCCCCCC/C=C\CCCCCCCC(=O)NCCc1ccc(O)c(O)c1 | Transient receptor potential cation channel subfamily V member 1 (Trpv1, Mus musculus, UniProt Q704Y3, T557S) | ion current, agonist, whole-cell patch clamp | – | T557S | reference: 3 mM 2-APB | maximal open probability | 0.37 ± 0.14
C[C@H](O)c1cnc(NS(=O)(=O)c2ccc(Cl)c(Cl)c2)nc1 | 17-beta-hydroxysteroid dehydrogenase 13 (Homo sapiens, UniProt Q7Z5P4) | substrate, NADH fluorescence | – | – | – | Km | 36 µM
COc1ccccc1N1CCN(CCCCN2CCc3ccccc3C2=O)CC1 | HTR7 | radioligand binding | – | concentration not given, added: [3H]LSD | – | inhibition | 98.2%
N[C@@H](CCC(=O)O)C(=O)O | uncharacterized protein (Ixodes scapularis, UniProt A0A0N9E2I2) | ion current, agonist | Xenopus oocytes | – | reference: 1 mM compound response | Emax | 135 ± 7%
N#Cc1ccc2[nH]cc(CCCCN3CCN(c4ccc5oc(C(N)=O)cc5c4)CC3)c2c1 | Sodium-dependent serotonin transporter (SLC6A4, Homo sapiens, UniProt P31645, R104K) | [3H]5-HT uptake, inhibitor | COS-7 | – | – | Hill coefficient | 1.43 ± 0.2
Nc1nc2c(ncn2[C@@H]2O[C@H](COP(=O)(O)O)[C@@H](O)[C@H]2O)c(=O)[nH]1 | GUK1 | enzyme activity, NADH-coupled | – | 15.62 µM, added: KCl 150 mM | – | reaction velocity | 0.0328 µM/s and 0.0462 µM/s and 0.0302 µM/s
O=C(O)C(=O)C(C(=O)O)C(O)C(=O)O (stereo not shown) | Uncharacterized protein | differential scanning fluorimetry | Candidatus Pelagibacter ubique | in-house screen | – | thermal shift | 4.48 °C
Nc1ncnc2c1ncn2[C@@H]1O[C@H](CO[P@](=O)(O)O[P@](=O)(O)O[P@@](=O)(O)S)[C@@H](O)[C@H]1O | GUK1 | binding, isothermal titration calorimetry | – | molar ratio 1.955, fitted curve | – | ΔH | -0.498 kcal/mol
COc1cccc(OC[C@H]2CN(CCN3CCc4ccccc43)CCO2)c1 | 5-hydroxytryptamine receptor 2C (HTR2C, Homo sapiens, UniProt P28335) | radioligand binding | – | concentration not given, added: [3H]mesulergine | – | inhibition | 3.1%

Repeated from above:
SMILES | target | test | test system | setting | how to read | measurement | value
Cc1cc(Cl)cc(C)c1OCC(=O)NC(C)C | Sodium-dependent neutral amino acid transporter B(0)AT1 (SLC6A19, Homo sapiens, UniProt Q695T7) | membrane potential, FLIPR membrane potential | CHO-BC cells | concentration not given, first screen | reference: uninhibited control | normalised transport activity | 0.897 and 0.932 and 0.925 and 0.889 and 0.951
C[C@@H](c1ccc(-n2cnc3c(N)ncnc32)cc1)N1CCc2nn(C)c(Cc3ccccc3)c2C1=O | 1-phosphatidylinositol 3-phosphate 5-kinase (PIKFYVE, Homo sapiens, UniProt Q9Y2I7) | KINOMEscan | – | 0.1 µM | reference: DMSO control | remaining binding | 67%
Nc1ncnc2c1ncn2[C@@H]1O[C@H](CO[P@](=O)(O)O[P@](=O)(O)O[P@@](=O)(O)S)[C@@H](O)[C@H]1O | GUK1 | binding, isothermal titration calorimetry | – | molar ratio 1.955, fitted curve | – | ΔH | -0.498 kcal/mol
